Published values from different studies.
Numbered parts are unrelated; each lists some results of a single study.
UniProt Q15831, sequence (whole entry, looked up): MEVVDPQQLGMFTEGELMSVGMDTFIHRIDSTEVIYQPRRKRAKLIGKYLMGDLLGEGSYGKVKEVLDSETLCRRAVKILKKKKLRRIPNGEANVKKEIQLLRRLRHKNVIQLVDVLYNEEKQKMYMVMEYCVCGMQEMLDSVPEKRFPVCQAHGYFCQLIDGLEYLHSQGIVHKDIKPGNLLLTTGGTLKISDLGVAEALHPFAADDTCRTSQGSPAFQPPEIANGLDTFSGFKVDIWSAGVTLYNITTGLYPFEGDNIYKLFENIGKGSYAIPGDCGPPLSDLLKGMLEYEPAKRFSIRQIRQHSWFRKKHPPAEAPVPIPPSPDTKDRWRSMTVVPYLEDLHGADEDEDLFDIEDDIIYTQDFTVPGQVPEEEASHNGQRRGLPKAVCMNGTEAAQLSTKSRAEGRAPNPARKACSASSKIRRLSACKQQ
UniProt O94804, sequence (whole entry, looked up): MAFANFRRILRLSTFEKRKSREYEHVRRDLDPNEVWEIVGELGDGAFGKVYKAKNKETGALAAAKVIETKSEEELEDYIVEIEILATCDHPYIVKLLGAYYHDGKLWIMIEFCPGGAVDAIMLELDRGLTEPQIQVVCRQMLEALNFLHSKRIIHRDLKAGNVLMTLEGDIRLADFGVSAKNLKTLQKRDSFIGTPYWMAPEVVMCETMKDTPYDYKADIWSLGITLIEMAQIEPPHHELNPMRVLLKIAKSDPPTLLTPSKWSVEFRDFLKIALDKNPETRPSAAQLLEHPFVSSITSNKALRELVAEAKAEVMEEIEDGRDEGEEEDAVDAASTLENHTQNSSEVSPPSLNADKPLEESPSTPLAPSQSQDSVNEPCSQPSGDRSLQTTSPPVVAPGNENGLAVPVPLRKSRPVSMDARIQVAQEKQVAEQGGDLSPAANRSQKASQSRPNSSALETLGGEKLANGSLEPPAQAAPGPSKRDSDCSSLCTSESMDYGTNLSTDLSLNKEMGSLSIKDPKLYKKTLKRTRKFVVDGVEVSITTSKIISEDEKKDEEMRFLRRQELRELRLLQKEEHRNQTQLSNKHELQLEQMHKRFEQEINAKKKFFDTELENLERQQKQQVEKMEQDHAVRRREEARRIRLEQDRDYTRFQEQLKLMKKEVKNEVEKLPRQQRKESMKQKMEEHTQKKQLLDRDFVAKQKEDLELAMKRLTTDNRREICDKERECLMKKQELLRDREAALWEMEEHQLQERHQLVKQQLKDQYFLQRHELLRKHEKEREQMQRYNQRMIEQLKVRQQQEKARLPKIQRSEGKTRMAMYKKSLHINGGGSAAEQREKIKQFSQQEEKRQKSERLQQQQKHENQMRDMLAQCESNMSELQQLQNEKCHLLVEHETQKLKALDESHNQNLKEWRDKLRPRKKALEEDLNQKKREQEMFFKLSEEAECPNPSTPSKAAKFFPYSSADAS
UniProt Q00535, sequence (whole entry, looked up): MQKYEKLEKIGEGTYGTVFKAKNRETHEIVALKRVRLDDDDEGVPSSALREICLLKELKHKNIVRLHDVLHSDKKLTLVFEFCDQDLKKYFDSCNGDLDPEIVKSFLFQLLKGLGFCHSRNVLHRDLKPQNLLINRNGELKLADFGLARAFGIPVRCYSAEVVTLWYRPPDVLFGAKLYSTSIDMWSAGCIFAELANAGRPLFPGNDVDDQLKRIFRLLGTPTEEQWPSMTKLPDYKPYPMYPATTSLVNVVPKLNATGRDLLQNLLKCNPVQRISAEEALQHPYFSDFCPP
UniProt Q9HAZ1, sequence (whole entry, looked up): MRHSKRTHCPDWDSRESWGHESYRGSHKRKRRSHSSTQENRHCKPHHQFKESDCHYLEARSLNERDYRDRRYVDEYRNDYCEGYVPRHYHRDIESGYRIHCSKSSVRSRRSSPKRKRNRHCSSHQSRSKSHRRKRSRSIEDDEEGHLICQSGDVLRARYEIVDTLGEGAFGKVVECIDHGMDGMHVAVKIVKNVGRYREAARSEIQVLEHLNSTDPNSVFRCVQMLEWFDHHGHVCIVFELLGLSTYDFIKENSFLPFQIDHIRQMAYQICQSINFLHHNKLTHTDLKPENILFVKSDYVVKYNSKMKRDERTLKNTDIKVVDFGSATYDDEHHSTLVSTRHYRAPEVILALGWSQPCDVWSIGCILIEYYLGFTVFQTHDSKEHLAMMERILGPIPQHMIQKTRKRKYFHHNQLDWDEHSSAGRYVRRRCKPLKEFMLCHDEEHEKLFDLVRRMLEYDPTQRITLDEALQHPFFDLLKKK
UniProt P29322, sequence (whole entry, looked up): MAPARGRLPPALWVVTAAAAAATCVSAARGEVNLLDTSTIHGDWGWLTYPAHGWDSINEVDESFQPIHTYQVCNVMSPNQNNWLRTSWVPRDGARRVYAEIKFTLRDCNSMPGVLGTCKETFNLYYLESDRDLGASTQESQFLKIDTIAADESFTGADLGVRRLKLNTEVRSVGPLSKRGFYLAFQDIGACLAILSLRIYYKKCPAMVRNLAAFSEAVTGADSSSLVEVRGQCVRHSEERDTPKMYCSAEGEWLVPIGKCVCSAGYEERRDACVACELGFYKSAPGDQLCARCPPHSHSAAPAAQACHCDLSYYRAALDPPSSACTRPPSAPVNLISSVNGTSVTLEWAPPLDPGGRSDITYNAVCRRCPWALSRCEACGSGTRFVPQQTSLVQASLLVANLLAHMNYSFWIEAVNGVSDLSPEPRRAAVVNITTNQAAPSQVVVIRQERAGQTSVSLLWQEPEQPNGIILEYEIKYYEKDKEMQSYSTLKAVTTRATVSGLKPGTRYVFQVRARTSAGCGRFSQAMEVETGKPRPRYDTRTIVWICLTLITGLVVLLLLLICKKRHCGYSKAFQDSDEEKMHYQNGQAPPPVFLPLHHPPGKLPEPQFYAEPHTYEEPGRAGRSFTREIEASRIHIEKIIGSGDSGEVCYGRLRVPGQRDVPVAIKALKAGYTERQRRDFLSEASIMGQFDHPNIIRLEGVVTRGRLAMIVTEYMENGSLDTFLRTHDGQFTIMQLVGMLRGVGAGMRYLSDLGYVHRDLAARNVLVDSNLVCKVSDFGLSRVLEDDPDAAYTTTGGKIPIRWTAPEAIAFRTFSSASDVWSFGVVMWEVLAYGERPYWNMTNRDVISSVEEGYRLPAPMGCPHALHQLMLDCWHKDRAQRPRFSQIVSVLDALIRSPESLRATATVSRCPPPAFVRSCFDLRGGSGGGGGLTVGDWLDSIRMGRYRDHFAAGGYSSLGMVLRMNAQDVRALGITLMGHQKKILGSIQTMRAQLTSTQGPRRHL
UniProt P57058, sequence (whole entry, looked up): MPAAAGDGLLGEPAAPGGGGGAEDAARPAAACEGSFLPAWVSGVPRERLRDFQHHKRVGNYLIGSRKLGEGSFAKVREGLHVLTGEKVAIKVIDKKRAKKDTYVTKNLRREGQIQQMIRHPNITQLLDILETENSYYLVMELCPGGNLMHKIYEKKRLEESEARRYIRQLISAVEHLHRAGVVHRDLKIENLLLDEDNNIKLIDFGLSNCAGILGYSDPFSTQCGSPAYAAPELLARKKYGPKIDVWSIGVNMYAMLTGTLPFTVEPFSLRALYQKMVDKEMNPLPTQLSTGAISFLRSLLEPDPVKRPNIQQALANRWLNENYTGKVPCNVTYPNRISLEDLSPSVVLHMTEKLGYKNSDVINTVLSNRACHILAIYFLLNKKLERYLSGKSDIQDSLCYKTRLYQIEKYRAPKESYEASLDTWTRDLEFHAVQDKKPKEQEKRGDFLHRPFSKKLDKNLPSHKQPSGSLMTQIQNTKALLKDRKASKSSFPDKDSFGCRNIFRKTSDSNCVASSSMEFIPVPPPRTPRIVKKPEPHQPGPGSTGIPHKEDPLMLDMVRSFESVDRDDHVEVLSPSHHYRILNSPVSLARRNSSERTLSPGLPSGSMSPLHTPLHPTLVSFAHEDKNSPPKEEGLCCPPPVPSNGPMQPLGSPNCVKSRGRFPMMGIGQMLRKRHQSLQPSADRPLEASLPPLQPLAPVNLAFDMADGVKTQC
UniProt Q9UIK4, sequence (whole entry, looked up): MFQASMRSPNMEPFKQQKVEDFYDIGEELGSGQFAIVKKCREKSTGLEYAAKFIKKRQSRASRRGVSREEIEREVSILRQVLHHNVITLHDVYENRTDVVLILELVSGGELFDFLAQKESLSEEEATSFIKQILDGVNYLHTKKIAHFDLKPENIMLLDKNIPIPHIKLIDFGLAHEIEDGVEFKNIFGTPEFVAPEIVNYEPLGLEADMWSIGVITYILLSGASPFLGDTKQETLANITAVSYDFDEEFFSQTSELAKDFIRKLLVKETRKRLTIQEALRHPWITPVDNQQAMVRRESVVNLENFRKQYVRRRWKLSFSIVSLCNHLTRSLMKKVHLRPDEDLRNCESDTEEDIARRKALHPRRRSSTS

Study 1 — species: mouse; matrix: microsomes or S9; concentration: 2 µM; time: 0.5 h; quantity: remaining compound
CS(=O)(=O)c1ccc(Nc2ccc3sc(C(=O)O)cc3c2)c(F)c1: > 99%
O=C(c1ccc2cccnn12)N1C[C@@H](Cc2ccccc2)[C@H](O)C1: 2.78%
Cc1ccccc1NC(=O)CC(=O)NS(=O)(=O)c1ccc(Cl)cc1: 25.7%
O=C(Nc1cccc2ccccc12)C1c2ccccc2Oc2ccccc21: 59.1%
c1ccc(-c2ncc(CNc3cccc(-c4nnc[nH]4)c3)s2)nc1: 49.3%
C(=N\n1cnnc1)/c1cn(-c2cccs2)nc1-c1ccccc1: 31.5%
CC1CC(C)C(C(=O)NCC(Nc2ccccc2)C(C)C)O1 (stereo not shown): 0.0691%
O=C(NCCN1CCCCC1)c1cc2ccc3ccccc3c2o1: 6.43%
Cc1ccc(CC2S/C(=N/N=C/c3ccncc3)N(Cc3ccco3)C2=O)cc1C (stereo not shown): 10.9%
O=C1CC(c2cccs2)Cc2nc3[nH]nc(O)c3cc21 (stereo not shown): 62%
O=C(C1CC(=O)N(c2n[nH]c3ccccc23)C1)N1CCC(c2noc3cc(F)ccc23)CC1 (stereo not shown): 63.4%
Cn1ncc2c(-n3cc(Br)cn3)ncnc21: 92.5%
CC1(C)CC2(CCCN(CC(O)(c3ccccc3)c3ccccc3)C2)CCO1 (stereo not shown): 0.00509%
CCc1nc2cc(-c3ccccn3)c(CO)nc2n1Cc1ccc2oc(-c3ccccc3-c3nnn[nH]3)c(Br)c2c1: 26.6%

Study 2 — concentration: 1 µM; quantity: remaining binding
Structure (SMILES): Cc1ccc(NC(=O)c2ccnc(C(F)(F)F)c2)cc1-c1cc(OCCO)nc(N2CCOCC2)c1
Myosin light chain kinase (MYLK3, Homo sapiens, UniProt Q32MK0); binding, competition with immobilised ligand: 100%
Hepatocyte growth factor receptor (MET, Homo sapiens, UniProt P08581, Y1235D); binding: 100%
Receptor-type tyrosine-protein kinase FLT3, autoinhibited (FLT3, Homo sapiens, UniProt P36888); binding, competition with immobilised ligand: 99%
Receptor tyrosine-protein kinase erbB-3 (ERBB3, Homo sapiens, UniProt P21860); binding, competition with immobilised ligand: 95%
Proto-oncogene tyrosine-protein kinase receptor Ret (RET, Homo sapiens, UniProt P07949, V804L); binding: 79%
Dual specificity protein kinase CLK4 (CLK4, Homo sapiens, UniProt Q9HAZ1); binding: 100%
Serine/threonine-protein kinase RIO2 (RIOK2, Homo sapiens, UniProt Q9BVS4); binding: 100%
Mast/stem cell growth factor receptor Kit (KIT, Homo sapiens, UniProt P10721, T670I/V559D); binding: 100%
Hormonally up-regulated neu tumor-associated kinase (HUNK, Homo sapiens, UniProt P57058); binding: 100%
Cyclin-dependent kinase 11A (CDK11A, Homo sapiens, UniProt Q9UQ88); binding: 49%
Tyrosine-protein kinase Fgr (FGR, Homo sapiens, UniProt P09769); cell-free assay, competition with immobilised ligand: 80%
Tyrosine-protein kinase FRK (FRK, Homo sapiens, UniProt P42685); binding, competition with immobilised ligand: 55%
Atypical kinase COQ8A, mitochondrial (COQ8A, Homo sapiens, UniProt Q8NI60); binding, competition with immobilised ligand: 99%
5'-AMP-activated protein kinase catalytic subunit alpha-2 (PRKAA2, Homo sapiens, UniProt P54646); binding: 100%
Serine/threonine-protein kinase MAK (MAK, Homo sapiens, UniProt P20794); binding: 90%
Serine/threonine-protein kinase TNNI3K (TNNI3K, Homo sapiens, UniProt Q59H18); binding, competition with immobilised ligand: 62%

Study 3 — SMILES: O=C(Nc1ccc(Cl)cc1)c1ccccc1NCc1ccncc1; read-out: enzyme activity; action: inhibitor; concentration: 0.5 µM; baseline: control; quantity: remaining activity
cGMP-dependent protein kinase 1, isoform beta (PRKG1, Homo sapiens, UniProt Q13976): 92.3%
G protein-coupled receptor kinase 3 (GRK3, Homo sapiens, UniProt P35626): 96.1%
Serine/threonine-protein kinase OSR1 (OXSR1, Homo sapiens, UniProt O95747): 96.8%
Mitogen-activated protein kinase 9 (MAPK9, Homo sapiens, UniProt P45984): 102%
Serine/threonine-protein kinase 10 (STK10, Homo sapiens, UniProt O94804): 81.8%
Cyclin-dependent kinase 5, with p25 (CDK5, Homo sapiens, UniProt Q00535): 84.9%
Tyrosine-protein kinase Lyn, isoform B (LYN, Homo sapiens, UniProt P07948): 93.7%
Death-associated protein kinase 2 (DAPK2, Homo sapiens, UniProt Q9UIK4): 98.4%
Serine/threonine-protein kinase Chk2 (CHEK2, Homo sapiens, UniProt O96017): 94.5%
Calcium/calmodulin-dependent protein kinase kinase 2 (CAMKK2, Homo sapiens, UniProt Q96RR4): 93.9%
Calcium/calmodulin-dependent protein kinase type II subunit delta (CAMK2D, Homo sapiens, UniProt Q13557): 101%
Mitogen-activated protein kinase kinase kinase 3 (MAP3K3, Homo sapiens, UniProt Q99759): 96.2%
Inhibitor of nuclear factor kappa-B kinase subunit epsilon (IKBKE, Homo sapiens, UniProt Q14164): 98.9%
Serine/threonine-protein kinase STK11 (STK11, Homo sapiens, UniProt Q15831): 93.5%
Death-associated protein kinase 1 (DAPK1, Homo sapiens, UniProt P53355): 99.9%
Cyclin-dependent kinase 4, with cyclin D1 (CDK4, Homo sapiens, UniProt P11802): 104%
TGF-beta receptor type-1 (TGFBR1, Homo sapiens, UniProt P36897): 100%
cAMP-dependent protein kinase catalytic subunit alpha (PRKACA, Homo sapiens, UniProt P17612): 97.1%
Inhibitor of nuclear factor kappa-B kinase subunit beta (IKBKB, Homo sapiens, UniProt O14920): 99.3%
Protein kinase C beta type, isoform beta-I (PRKCB, Homo sapiens, UniProt P05771): 98.1%
Protein kinase C alpha type (PRKCA, Homo sapiens, UniProt P17252): 96.7%
STE20/SPS1-related proline-alanine-rich protein kinase (STK39, Homo sapiens, UniProt Q9UEW8): 94.7%
Serine/threonine-protein kinase Nek2 (NEK2, Homo sapiens, UniProt P51955): 88.4%
TGF-beta receptor type-2 (TGFBR2, Homo sapiens, UniProt P37173): 90.1%

Study 4 — concentration: 1 µM; quantity: remaining binding
Structure (SMILES): COc1ccc2cc(OCC3(C(=O)O)CN(C(=O)c4ccc(F)cc4)C3)ccc2c1
Ephrin type-A receptor 8 (EPHA8, Homo sapiens, UniProt P29322); cell-free assay, competition with immobilised ligand: 100%
Tyrosine-protein kinase HCK (HCK, Homo sapiens, UniProt P08631); cell-free assay, competition with immobilised ligand: 100%
Serine/threonine-protein kinase STK11 (STK11, Homo sapiens, UniProt Q15831); cell-free assay, competition with immobilised ligand: 100%
Cyclin-dependent kinase 19 (CDK19, Homo sapiens, UniProt Q9BWU1); competition binding: 95%
Proto-oncogene tyrosine-protein kinase Src (SRC, Homo sapiens, UniProt P12931); cell-free assay, competition with immobilised ligand: 100%
Receptor-type tyrosine-protein kinase FLT3 (FLT3, Homo sapiens, UniProt P36888, D835H); cell-free assay, competition with immobilised ligand: 71%
SRSF protein kinase 1 (SRPK1, Homo sapiens, UniProt Q96SB4); cell-free assay, competition with immobilised ligand: 72%
Bone morphogenetic protein receptor type-2 (BMPR2, Homo sapiens, UniProt Q13873); cell-free assay, competition with immobilised ligand: 87%
Receptor-type tyrosine-protein kinase FLT3 (FLT3, Homo sapiens, UniProt P36888, D835V/ITD); cell-free assay, competition with immobilised ligand: 91%
LIM domain kinase 2 (LIMK2, Homo sapiens, UniProt P53671); cell-free assay, competition with immobilised ligand: 90%
MAP/microtubule affinity-regulating kinase 4 (MARK4, Homo sapiens, UniProt Q96L34); cell-free assay, competition with immobilised ligand: 100%
Dual specificity protein kinase TTK (TTK, Homo sapiens, UniProt P33981); cell-free assay, competition with immobilised ligand: 100%
Serine/threonine-protein kinase 10 (STK10, Homo sapiens, UniProt O94804); cell-free assay, competition with immobilised ligand: 100%
Serine/threonine-protein kinase Nek5 (NEK5, Homo sapiens, UniProt Q6P3R8); cell-free assay, competition with immobilised ligand: 100%
MAP kinase-interacting serine/threonine-protein kinase 2 (MKNK2, Homo sapiens, UniProt Q9HBH9); cell-free assay, competition with immobilised ligand: 96%
Phosphatidylinositol 4,5-bisphosphate 3-kinase catalytic subunit alpha isoform (PIK3CA, Homo sapiens, UniProt P42336, Q546K); cell-free assay, competition with immobilised ligand: 42%
Serine/threonine-protein kinase 36 (STK36, Homo sapiens, UniProt Q9NRP7); cell-free assay, competition with immobilised ligand: 89%
Mitogen-activated protein kinase kinase kinase 19 (MAP3K19, Homo sapiens, UniProt Q56UN5); cell-free assay, competition with immobilised ligand: 82%
Mitogen-activated protein kinase kinase kinase kinase 2 (MAP4K2, Homo sapiens, UniProt Q12851); cell-free assay, competition with immobilised ligand: 100%
Serine/threonine-protein kinase SBK1 (SBK1, Homo sapiens, UniProt Q52WX2); cell-free assay, competition with immobilised ligand: 100%
Serine/threonine-protein kinase Nek3 (NEK3, Homo sapiens, UniProt P51956); cell-free assay, competition with immobilised ligand: 100%
Epidermal growth factor receptor (EGFR, Homo sapiens, UniProt P00533, T790M); cell-free assay, competition with immobilised ligand: 100%

Repeated from above (study 3):
TGF-beta receptor type-1 (TGFBR1, Homo sapiens, UniProt P36897): 100%
Serine/threonine-protein kinase OSR1 (OXSR1, Homo sapiens, UniProt O95747): 96.8%
Cyclin-dependent kinase 5, with p25 (CDK5, Homo sapiens, UniProt Q00535): 84.9%
cGMP-dependent protein kinase 1, isoform beta (PRKG1, Homo sapiens, UniProt Q13976): 92.3%
Mitogen-activated protein kinase kinase kinase 3 (MAP3K3, Homo sapiens, UniProt Q99759): 96.2%
Death-associated protein kinase 1 (DAPK1, Homo sapiens, UniProt P53355): 99.9%
STE20/SPS1-related proline-alanine-rich protein kinase (STK39, Homo sapiens, UniProt Q9UEW8): 94.7%
